Results of several laboratories.
Each numbered part is a random draw from the data of one study; scales do not carry over between parts.
Sequence of UniProt P21802 (whole entry, looked up): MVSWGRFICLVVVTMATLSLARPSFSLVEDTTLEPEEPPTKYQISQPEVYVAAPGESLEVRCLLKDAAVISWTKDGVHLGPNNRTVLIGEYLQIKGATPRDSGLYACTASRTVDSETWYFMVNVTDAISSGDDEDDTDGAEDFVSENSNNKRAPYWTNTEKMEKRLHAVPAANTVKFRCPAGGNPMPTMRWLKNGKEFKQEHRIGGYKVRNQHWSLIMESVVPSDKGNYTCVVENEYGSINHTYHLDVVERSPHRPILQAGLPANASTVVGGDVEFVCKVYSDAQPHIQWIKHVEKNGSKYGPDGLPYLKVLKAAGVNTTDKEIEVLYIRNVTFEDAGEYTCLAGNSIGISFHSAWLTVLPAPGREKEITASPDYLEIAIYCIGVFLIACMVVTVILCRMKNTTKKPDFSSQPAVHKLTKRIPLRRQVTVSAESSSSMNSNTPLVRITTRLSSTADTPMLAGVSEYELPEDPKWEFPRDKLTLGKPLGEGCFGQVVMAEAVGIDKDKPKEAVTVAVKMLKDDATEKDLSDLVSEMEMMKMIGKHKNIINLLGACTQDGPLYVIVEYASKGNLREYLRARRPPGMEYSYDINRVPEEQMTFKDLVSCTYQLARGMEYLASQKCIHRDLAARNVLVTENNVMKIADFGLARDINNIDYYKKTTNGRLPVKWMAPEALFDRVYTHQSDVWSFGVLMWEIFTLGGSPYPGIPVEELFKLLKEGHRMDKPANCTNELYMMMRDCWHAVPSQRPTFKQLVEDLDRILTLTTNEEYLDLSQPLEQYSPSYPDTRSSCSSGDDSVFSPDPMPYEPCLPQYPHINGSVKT
Sequence of UniProt P23458 (whole entry, looked up): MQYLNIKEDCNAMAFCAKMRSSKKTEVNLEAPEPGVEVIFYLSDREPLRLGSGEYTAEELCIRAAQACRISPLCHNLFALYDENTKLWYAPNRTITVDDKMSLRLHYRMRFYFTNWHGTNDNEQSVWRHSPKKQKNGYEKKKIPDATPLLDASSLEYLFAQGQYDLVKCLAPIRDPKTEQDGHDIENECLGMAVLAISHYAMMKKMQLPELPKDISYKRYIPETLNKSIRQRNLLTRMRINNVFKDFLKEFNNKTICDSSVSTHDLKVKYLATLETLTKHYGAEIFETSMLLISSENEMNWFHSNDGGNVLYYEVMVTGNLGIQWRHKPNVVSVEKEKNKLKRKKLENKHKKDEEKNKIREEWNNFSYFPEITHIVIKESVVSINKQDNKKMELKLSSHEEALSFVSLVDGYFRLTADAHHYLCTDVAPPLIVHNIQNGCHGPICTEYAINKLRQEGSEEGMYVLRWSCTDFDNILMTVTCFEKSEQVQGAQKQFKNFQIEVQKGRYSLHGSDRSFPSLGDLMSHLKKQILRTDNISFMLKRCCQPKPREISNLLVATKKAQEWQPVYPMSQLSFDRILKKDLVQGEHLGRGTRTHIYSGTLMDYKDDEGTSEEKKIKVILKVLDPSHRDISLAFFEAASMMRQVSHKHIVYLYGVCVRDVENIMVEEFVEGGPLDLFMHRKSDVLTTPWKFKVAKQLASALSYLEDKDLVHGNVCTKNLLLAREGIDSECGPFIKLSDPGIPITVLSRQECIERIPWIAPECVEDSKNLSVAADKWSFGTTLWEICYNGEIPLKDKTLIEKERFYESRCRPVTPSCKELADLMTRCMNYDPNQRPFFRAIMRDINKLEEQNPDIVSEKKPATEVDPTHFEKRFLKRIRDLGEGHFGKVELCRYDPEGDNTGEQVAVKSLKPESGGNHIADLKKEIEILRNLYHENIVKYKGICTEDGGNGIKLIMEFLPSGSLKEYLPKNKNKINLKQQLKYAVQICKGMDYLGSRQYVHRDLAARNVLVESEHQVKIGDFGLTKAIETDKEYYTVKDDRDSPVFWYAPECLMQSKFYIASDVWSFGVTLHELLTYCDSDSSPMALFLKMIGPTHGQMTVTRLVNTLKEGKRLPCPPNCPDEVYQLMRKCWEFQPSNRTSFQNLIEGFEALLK
Sequence of UniProt Q6P3R8 (whole entry, looked up): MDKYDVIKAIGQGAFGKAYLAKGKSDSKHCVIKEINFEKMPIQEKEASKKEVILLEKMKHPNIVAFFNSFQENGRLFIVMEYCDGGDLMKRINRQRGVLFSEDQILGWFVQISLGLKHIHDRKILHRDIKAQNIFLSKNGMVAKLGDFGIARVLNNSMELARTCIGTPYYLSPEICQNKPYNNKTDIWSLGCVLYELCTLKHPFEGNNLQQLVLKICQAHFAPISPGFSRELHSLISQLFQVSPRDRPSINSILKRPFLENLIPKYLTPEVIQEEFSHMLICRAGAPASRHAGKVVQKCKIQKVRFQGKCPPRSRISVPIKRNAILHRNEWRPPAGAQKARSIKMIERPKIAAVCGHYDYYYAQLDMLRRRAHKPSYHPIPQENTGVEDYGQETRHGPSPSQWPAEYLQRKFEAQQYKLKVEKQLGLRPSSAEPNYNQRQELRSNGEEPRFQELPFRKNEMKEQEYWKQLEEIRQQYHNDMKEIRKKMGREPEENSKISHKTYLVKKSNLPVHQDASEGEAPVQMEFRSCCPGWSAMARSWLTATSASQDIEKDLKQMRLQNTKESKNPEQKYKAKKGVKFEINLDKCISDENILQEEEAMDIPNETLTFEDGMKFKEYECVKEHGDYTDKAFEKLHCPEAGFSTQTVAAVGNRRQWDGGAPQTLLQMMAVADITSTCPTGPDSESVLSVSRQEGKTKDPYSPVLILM
Sequence of UniProt Q8TDX7 (whole entry, looked up): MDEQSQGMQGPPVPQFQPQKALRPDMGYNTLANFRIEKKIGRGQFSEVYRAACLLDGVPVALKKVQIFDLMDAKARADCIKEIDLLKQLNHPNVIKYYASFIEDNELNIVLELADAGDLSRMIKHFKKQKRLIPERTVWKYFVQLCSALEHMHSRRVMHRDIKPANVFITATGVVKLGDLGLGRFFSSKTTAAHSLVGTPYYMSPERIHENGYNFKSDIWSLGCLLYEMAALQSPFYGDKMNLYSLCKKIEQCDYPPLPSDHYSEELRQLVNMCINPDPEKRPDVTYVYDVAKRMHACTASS

Study 1
Structure (SMILES): Cc1ccc(O)c(C)c1-c1cnc2[nH]c(-c3cnc(N4CCC(CN5CCN(c6ccc7c(c6F)CN(C6CCC(=O)NC6=O)C7=O)CC5)CC4)nc3)cc2c1C#N (stereo not drawn)
Target: Membrane-associated tyrosine- and threonine-specific cdc2-inhibitory kinase (PKMYT1, Homo sapiens, UniProt Q99640)
Residues (Q99640 1-499): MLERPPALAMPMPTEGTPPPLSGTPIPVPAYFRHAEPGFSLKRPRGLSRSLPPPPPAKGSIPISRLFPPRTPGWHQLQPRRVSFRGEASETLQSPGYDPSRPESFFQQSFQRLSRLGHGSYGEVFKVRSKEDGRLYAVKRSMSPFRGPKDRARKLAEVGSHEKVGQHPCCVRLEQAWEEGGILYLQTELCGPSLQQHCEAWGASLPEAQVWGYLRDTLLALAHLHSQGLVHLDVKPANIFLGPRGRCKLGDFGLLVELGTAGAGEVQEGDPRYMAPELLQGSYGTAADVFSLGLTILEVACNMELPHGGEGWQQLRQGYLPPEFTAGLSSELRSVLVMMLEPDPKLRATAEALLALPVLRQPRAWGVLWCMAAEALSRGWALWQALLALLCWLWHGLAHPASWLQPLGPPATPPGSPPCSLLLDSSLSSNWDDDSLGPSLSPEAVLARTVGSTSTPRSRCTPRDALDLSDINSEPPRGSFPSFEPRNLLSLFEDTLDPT
For 0.1111 µM: inhibition read 99%.
The inhibition was -3.08% (cell-free assay, inhibitor, TR-FRET; 460 pM).
For cell-free assay, inhibitor, TR-FRET; 152 pM: inhibition read -7.63%.
The inhibition was -7.65% (5.1e-05 µM).
It gave 98.5% for inhibition (cell-free assay, inhibitor, TR-FRET; 0.3333 µM).
cell-free assay, inhibitor, TR-FRET; 4.12 nM — inhibition: 44.7%.
It gave 95.8% for inhibition (cell-free assay, inhibitor, TR-FRET; 37.04 nM).
The inhibition was 85% (0.01235 µM).
It gave 2.51% for inhibition (0.00046 µM).
0.3333 µM — inhibition: 99.3%.
0.00412 µM — inhibition: 46%.

Study 2 — observed: kinase activity
SMILES: CNc1ncc2cc(-c3cc(OC)cc(OC)c3Cl)c(=O)n(CCc3ccc(NC(=O)C(C#N)=CC(C)(C)N4CCOCC4)cc3)c2n1
CAMK2A: Calcium/calmodulin-dependent protein kinase type II subunit alpha (CAMK2A, Homo sapiens, UniProt Q9UQM7)
Sequence of UniProt Q9UQM7 (whole entry, looked up): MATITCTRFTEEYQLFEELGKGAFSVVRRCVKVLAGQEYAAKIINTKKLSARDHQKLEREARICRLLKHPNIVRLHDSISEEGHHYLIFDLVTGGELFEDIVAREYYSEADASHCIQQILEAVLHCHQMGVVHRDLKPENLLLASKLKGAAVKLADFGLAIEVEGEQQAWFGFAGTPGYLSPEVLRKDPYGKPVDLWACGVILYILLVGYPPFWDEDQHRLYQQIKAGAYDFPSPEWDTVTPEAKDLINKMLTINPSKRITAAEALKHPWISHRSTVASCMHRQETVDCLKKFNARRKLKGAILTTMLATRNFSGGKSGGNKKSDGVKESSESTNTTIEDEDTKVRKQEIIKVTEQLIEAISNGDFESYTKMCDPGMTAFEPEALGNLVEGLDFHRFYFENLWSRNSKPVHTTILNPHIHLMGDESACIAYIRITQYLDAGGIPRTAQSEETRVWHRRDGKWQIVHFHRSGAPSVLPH
The inhibition was 1% (TBK1 (Homo sapiens, UniProt Q9UHD2); 1 µM).
It gave -4% for inhibition (PRKCI (Homo sapiens, UniProt P41743); 0.1 µM).
For CAMK2A; 1 µM: inhibition read -2%.
The inhibition was -1% (NEK7 (Homo sapiens, UniProt Q8TDX7); 1 µM).
For PRKCG (Homo sapiens, UniProt P05129); 1 µM: inhibition read 6%.
The inhibition was -2% (CAMK2A; 0.1 µM).
Mitogen-activated protein kinase kinase kinase 7, with TAB1 (MAP3K7, Homo sapiens, UniProt O43318); 0.1 µM — inhibition: -2%.
For INSRR (Homo sapiens, UniProt P14616); 1 µM: inhibition read 1%.
For PRKAA2 (Homo sapiens, UniProt P54646); 1 µM: inhibition read 0%.
For JAK1 (Homo sapiens, UniProt P23458); 0.1 µM: inhibition read 0%.
The inhibition was 5% (MAPKAPK2 (Homo sapiens, UniProt P49137); 1 µM).

Study 3 — Structure (SMILES): O=C(Nc1ccccc1)Nc1cccc(Oc2ccc3nccn3n2)c1; observed: binding; concentration: 1 µM
NEK2 (Homo sapiens, UniProt P51955); competition with immobilised ligand — remaining binding: 100%.
It gave 100% for remaining binding (NTRK1 (Homo sapiens, UniProt P04629); competition with immobilised ligand).
The remaining binding was 100% (ROCK2 (Homo sapiens, UniProt O75116)).
EGFR (Homo sapiens, UniProt P00533, T790M) — remaining binding: 100%.
For BRAF (Homo sapiens, UniProt P15056); competition with immobilised ligand: remaining binding read 76%.
For ACVR1B (Homo sapiens, UniProt P36896); competition with immobilised ligand: remaining binding read 100%.
COQ8A (Homo sapiens, UniProt Q8NI60); competition with immobilised ligand — remaining binding: 95%.
The remaining binding was 100% (Ribosomal protein S6 kinase alpha-1, N-terminal kinase domain (RPS6KA1, Homo sapiens, UniProt Q15418); competition with immobilised ligand).
For FGFR2 (Homo sapiens, UniProt P21802); competition with immobilised ligand: remaining binding read 91%.
For SGK3 (Homo sapiens, UniProt Q96BR1): remaining binding read 91%.
For RET (Homo sapiens, UniProt P07949); competition with immobilised ligand: remaining binding read 92%.
The remaining binding was 100% (NEK5 (Homo sapiens, UniProt Q6P3R8)).
It gave 100% for remaining binding (HIPK3 (Homo sapiens, UniProt Q9H422); competition with immobilised ligand).
For PIP5K1C (Homo sapiens, UniProt O60331): remaining binding read 51%.
For Myosin-IIIb (MYO3B, Homo sapiens, UniProt Q8WXR4); competition with immobilised ligand: remaining binding read 100%.

Study 4 — observed: thermal unfolding; technique: differential scanning fluorimetry; concentration: 5.5 µM; direction: higher = more unfolded
SMILES: C[C@@H]1CN(c2ccc(-c3cc(C(=O)NCCOCCOCCOCCOCCOCCOCCNC(=O)/C=C/c4[nH]cc(C(=O)N[C@@H](CC(N)=O)c5ccc(F)c(Cl)c5)c4-c4ccc(Cl)cc4F)ccc3F)cc2NC(=O)c2ccc(F)cc2C(F)(F)F)C[C@H](C)N1C
DCAF1: DDB1- and CUL4-associated factor 1 (DCAF1, Homo sapiens, UniProt Q9Y4B6)
Sequence of UniProt Q9Y4B6 (whole entry, looked up): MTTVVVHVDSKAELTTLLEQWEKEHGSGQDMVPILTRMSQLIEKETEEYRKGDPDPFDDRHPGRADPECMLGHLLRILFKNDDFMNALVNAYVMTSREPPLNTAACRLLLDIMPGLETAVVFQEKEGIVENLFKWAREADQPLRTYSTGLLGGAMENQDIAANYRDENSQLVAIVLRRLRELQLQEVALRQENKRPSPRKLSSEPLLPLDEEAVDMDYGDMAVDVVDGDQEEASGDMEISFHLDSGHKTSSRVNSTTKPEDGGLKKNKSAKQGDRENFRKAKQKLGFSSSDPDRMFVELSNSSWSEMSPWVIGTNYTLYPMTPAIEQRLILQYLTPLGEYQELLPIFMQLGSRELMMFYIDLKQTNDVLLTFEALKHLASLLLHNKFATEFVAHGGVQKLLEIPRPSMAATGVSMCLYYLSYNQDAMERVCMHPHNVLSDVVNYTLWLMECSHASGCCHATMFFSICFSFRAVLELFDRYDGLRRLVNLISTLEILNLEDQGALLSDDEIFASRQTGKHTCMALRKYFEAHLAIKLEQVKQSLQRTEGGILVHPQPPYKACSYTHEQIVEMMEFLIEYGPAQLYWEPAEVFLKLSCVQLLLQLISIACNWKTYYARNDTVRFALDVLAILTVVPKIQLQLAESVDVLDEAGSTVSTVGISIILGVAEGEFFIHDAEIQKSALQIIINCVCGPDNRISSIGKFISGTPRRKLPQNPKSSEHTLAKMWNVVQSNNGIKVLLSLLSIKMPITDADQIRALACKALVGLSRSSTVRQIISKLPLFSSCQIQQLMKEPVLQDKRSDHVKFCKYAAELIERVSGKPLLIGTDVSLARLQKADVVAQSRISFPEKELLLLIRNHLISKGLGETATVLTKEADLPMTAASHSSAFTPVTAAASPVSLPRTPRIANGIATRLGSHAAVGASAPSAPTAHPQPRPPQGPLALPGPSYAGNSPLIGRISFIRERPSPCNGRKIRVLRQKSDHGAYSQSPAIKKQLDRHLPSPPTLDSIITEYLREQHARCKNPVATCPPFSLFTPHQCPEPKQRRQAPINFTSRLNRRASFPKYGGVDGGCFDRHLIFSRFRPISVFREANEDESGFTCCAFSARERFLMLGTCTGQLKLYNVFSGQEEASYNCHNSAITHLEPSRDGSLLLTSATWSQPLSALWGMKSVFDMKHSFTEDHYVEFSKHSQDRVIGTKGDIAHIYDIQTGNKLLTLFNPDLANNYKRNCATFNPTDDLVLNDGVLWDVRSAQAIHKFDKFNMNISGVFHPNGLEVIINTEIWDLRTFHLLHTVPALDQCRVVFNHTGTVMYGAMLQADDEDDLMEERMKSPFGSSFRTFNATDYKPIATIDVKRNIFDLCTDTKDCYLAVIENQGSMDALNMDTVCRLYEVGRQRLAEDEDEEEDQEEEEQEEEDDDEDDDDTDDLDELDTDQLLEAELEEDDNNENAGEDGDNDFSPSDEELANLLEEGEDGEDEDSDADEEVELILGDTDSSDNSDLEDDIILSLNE
WDR5: WD repeat-containing protein 5 (WDR5, Homo sapiens, UniProt P61964)
DCAF1; 61.41 °C — “SYPRO Orange fluorescence”: 51500 a.u.
It gave 8410 a.u. for “SYPRO Orange fluorescence” (DCAF1; 30.2 °C).
It gave 8990 a.u. for “SYPRO Orange fluorescence” (DCAF1; 32 °C).
It gave 15100 a.u. for “SYPRO Orange fluorescence” (WDR5; 47 °C).
The “SYPRO Orange fluorescence” was 37500 a.u. (DCAF1; 83.21 °C).
The “SYPRO Orange fluorescence” was 8880 a.u. (DCAF1; 31.6 °C).
DCAF1; 60.81 °C — “SYPRO Orange fluorescence”: 49800 a.u.
For WDR5; 50.2 °C: “SYPRO Orange fluorescence” read 16500 a.u.
The “SYPRO Orange fluorescence” was 29000 a.u. (DCAF1; 94.41 °C).
For DCAF1; 31.8 °C: “SYPRO Orange fluorescence” read 8940 a.u.
DCAF1; 69.61 °C — “SYPRO Orange fluorescence”: 48700 a.u.

Some of these lines once more (study 3):
It gave 100% for remaining binding (NTRK1 (Homo sapiens, UniProt P04629); competition with immobilised ligand).
The remaining binding was 100% (ROCK2 (Homo sapiens, UniProt O75116)).
EGFR (Homo sapiens, UniProt P00533, T790M) — remaining binding: 100%.
For BRAF (Homo sapiens, UniProt P15056); competition with immobilised ligand: remaining binding read 76%.
For ACVR1B (Homo sapiens, UniProt P36896); competition with immobilised ligand: remaining binding read 100%.
COQ8A (Homo sapiens, UniProt Q8NI60); competition with immobilised ligand — remaining binding: 95%.
The remaining binding was 100% (Ribosomal protein S6 kinase alpha-1, N-terminal kinase domain (RPS6KA1, Homo sapiens, UniProt Q15418); competition with immobilised ligand).
